Published values of several laboratories.
Each line is one published result; not all experiments were run side by side. Numbers after ± are the reported error.

Compound | organism | test | system | setting | MIC
CC[C@H](C)[C@H](NC(=O)[C@H](CCCN)NC(=O)[C@H](CC(N)=O)NC(=O)[C@H](Cc1c[nH]c2ccccc12)NC(=O)[C@H](Cc1ccccc1)NC(=O)[C@H](CCCN)NC(=O)[C@H](CCCNC(=N)N)NC(=O)[C@H](CC(C)C)NC(=O)[C@H](Cc1c[nH]c2ccccc12)NC(=O)[C@H](CCCN)NC(=O)[C@H](CCCNC(=N)N)NC(=O)[C@H](CC(C)C)NC(=O)CNC(C)=O)C(=O)N[C@@H](CCCN)C(=O)N[C@@H](CCCNC(=N)N)C(N)=O | Enterobacter aerogenes | broth microdilution | multidrug-resistant |  | 12.5 µM
[O-][N+]1=C(Cc2ccccc2)C2=NCCCN2c2ccccc21 | Clostridioides difficile | microbial growth | ATCC43255 |  | 32 µg/mL
CC[C@H](C)[C@H](NC(=O)[C@@H](Cc1ccccc1)NC)C(=O)N[C@@H](CO)C(=O)N[C@H](CCC(N)=O)C(=O)N[C@@H](C(=O)N[C@H](C(=O)N[C@@H](CO)C(=O)N[C@H]1C(=O)N[C@@H](C)C(=O)N[C@@H](C2CCCCC2)C(=O)N[C@@H]([C@@H](C)CC)C(=O)O[C@H]1C)[C@@H](C)CC)[C@@H](C)CC | Gram-positive bacteria |  | 0.002% polysorbate 80 | range over five species | 0.125 to 1 µg/mL
C[C@@H](c1ccn(Cc2ccc(I)cc2)n1)[C@](O)(Cn1cnnn1)c1ccc(F)cc1F | Candidozyma auris | growth | 791 drug-resistant isolate | 24 h, 30 °C, ≥50% inhibition | 1 µg/mL
CN(Cc1cc(C2CC2)on1)C(=O)c1cccc(-c2ccc3c(c2)CCO3)c1 | Cryptococcus neoformans | broth microdilution | H99, YNB with 2% acetate |  | 2 µg/mL
CC(=O)OC1C(C)C(OC2CC3OCOC3C(C)O2)C=COC2(C)Oc3c(C)c(O)c4c(c3C2=O)C(=O)C=C(NC(=O)C(C)=CC=CC(C(C)OC(=O)C(C)(C)CC(=O)O)C(O)C(C)C(O)C1C)C4=O (centres unmarked) | Serratia marcescens Serratia marcescens |  | NCTC 10211 |  | > 128 µg/mL
CC(C)c1ccc(Cn2ccc([C@H](C)[C@](O)(Cn3cnnn3)c3ccc(F)cc3F)n2)cc1 | Candidozyma auris | growth | 791 drug-resistant isolate | 24 h, 30 °C, ≥50% inhibition | 4 µg/mL
CC[C@H](C)[C@H](NC(=O)[C@H](CCCCN)NC(=O)[C@H](CC(N)=O)NC(=O)[C@H](Cc1c[nH]c2ccccc12)NC(=O)[C@H](Cc1ccccc1)NC(=O)[C@H](CCCCN)NC(=O)[C@H](CCCNC(=N)N)NC(=O)[C@H](CC(C)C)NC(=O)[C@H](Cc1c[nH]c2ccccc12)NC(=O)[C@H](CCCCN)NC(=O)[C@H](CCCNC(=N)N)NC(=O)[C@H](CC(C)C)NC(=O)CNC(C)=O)C(=O)N[C@@H](CCCCN)C(=O)N[C@@H](CCCNC(=N)N)C(N)=O | Citrobacter freundii | bacterial growth, broth microdilution | multidrug-resistant |  | 3.12 µM
CC[C@H](C)[C@H](NC(=O)[C@H](C)NC(=O)CNC(=O)[C@@H](N)CCSC)C(=O)N[C@@H](C)C(=O)N[C@@H](CCCCN)C(=O)N[C@@H](CC(C)C)C(=O)N[C@@H](CCCNC(=N)N)C(=O)N[C@@H](C)C(=O)N[C@@H](CCCCN)C(=O)N[C@@H](Cc1ccccc1)C(=O)NCC(=O)N[C@@H](Cc1c[nH]c2ccccc12)C(=O)N1CCC[C@H]1C(=O)N[C@@H](Cc1ccccc1)C(=O)N[C@H](C(=O)N[C@@H](CCCCN)C(=O)N[C@@H](CCCCN)C(=O)N[C@@H](Cc1ccccc1)C(=O)N[C@@H](Cc1ccc(O)cc1)C(=O)N[C@@H](CCCCN)C(=O)N[C@@H](CCC(N)=O)C(=O)N[C@H](C(=O)N[C@@H](CCSC)C(=O)N[C@@H](CCC(N)=O)C(=O)N[C@@H](Cc1ccccc1)C(=O)N[C@H](C(=O)NCC(=O)N[C@@H](CCC(N)=O)C(=O)NCC(=O)N[C@@H](Cc1c[nH]c2ccccc12)C(=O)N[C@H](C(=O)N[C@H](C(=O)N[C@@H](CC(=O)O)C(=O)N[C@@H](CCC(N)=O)C(=O)N[C@H](C(=O)N[C@@H](CCC(=O)O)C(=O)N[C@@H](CCCCN)C(=O)N[C@@H](Cc1c[nH]c2ccccc12)C(=O)N[C@@H](CC(C)C)C(=O)N[C@@H](CCCCN)C(=O)N[C@@H](CCCNC(=N)N)C(=O)N[C@@H](Cc1c[nH]cn1)C(=O)O)[C@@H](C)CC)[C@@H](C)CC)[C@@H](C)O)[C@@H](C)CC)[C@@H](C)CC)[C@@H](C)CC | Bacillus subtilis subsp. subtilis |  | ATCC 23857 | 10 h | 11.5 ± 0.1 µM
OB(O)c1cnn(-c2cccc(Cl)c2)c1 | Citrobacter freundii | bacterial growth | AmpC-overproducing clinical isolate | cefotaxime alone | 4 µg/mL
CN[C@@H]1[C@H](O)[C@H](NC)[C@H]2O[C@]3(O)[C@H](O[C@@H]2[C@H]1O)O[C@H](C)C[C@@]3(O)CNCc1ccccc1 | Streptococcus pneumoniae |  | BAA-1407 mefE ermB resistant |  | 13 µg/mL
C[N+]1=C2C(c3ccccc3)=[N+]([O-])c3ccccc3N2CCC1 | Cutibacterium acnes | microbial growth |  |  | 16 µg/mL
COc1cc(O)c2c(=O)c3c(O)c(-c4c(C)cc5c(c4O)C(=O)C4=C(O)C[C@H](OC)[C@@H](O)[C@]4(C)O5)c(C)cc3oc2c1OC | Colletotrichum acutatum | microbial growth | BCC |  | > 82.4 µM
CC[C@H](C)[C@@H]1NC(=O)CNC(=O)[C@H](CCCCN)NC(=O)[C@H](C)NC(=O)[C@H](CCC(=O)O)NC(=O)[C@H](Cc2ccccc2)NC(=O)[C@H](CO)NC(=O)[C@H](CC(C)C)NC(=O)[C@H](C(C)C)NC(=O)[C@H](CC(=O)O)NC(=O)[C@@H](NC(=O)[C@@H](NC(=O)[C@@H](N)C(C)C)[C@@H](C)O)CSSC[C@@H]2NC(=O)[C@H](CO)NC(=O)CNC(=O)CNC(=O)[C@H](CCCCN)NC(=O)[C@H](CCCCN)NC(=O)[C@H](CCCNC(=N)N)NC(=O)[C@H](CC(C)C)NC(=O)[C@H](C)NC(=O)[C@H]([C@@H](C)CC)NC(=O)[C@@H]3CSSC[C@@H](C(=O)N[C@@H](CCCNC(=N)N)C(=O)N[C@@H](CC(N)=O)C(=O)O)NC(=O)[C@H](C(C)C)NC(=O)[C@H](CSSC[C@H](NC(=O)[C@H](C)NC(=O)[C@H](CO)NC(=O)[C@H](Cc4c[nH]cn4)NC(=O)[C@H](CC(N)=O)NC(=O)[C@H](C(C)C)NC(=O)[C@H](C)NC1=O)C(=O)N[C@@H](C)C(=O)N[C@@H](CC(C)C)C(=O)N[C@@H](Cc1c[nH]cn1)C(=O)N3)NC(=O)[C@H](C(C)C)NC(=O)CNC(=O)[C@H](CC(N)=O)NC(=O)[C@H](CCC(N)=O)NC2=O | Salmonella typhimurium | broth microdilution | KCTC 1926 | 16 h, 37 °C | 3.1 µM
CC(C)C[C@@H]1NC(=O)[C@H](C)NC(=O)[C@H](NC(=O)[C@H](CO)NC(=O)[C@@H](CCCCN)NC(=O)[C@@H](CC(C)C)NC(=O)[C@H](C)N)[C@H](C(N)=O)OC(=O)[C@H](CC(C)C)NC1=O | Bacillus subtilis Staphylococcus epidermidis |  | ATCC 14990 | tested as TFA salt | 8 to 16 µg/mL
[O-][N+]1=C(c2ccccc2)C2=NCCN2c2ccccc21 | Prevotella intermedia/nigrescens |  | ATCC 25611 |  | ≤ 0.06 µg/mL
O=C(NCc1nc(-c2ccc(Br)cc2)c[nH]1)Nc1ncc(Sc2ccccn2)s1 | Bifidobacterium breve | broth microdilution | ATCC 11863 | without verapamil | > 128 µM

Some of these lines once more:
Compound | organism | test | system | setting | MIC
CN(Cc1cc(C2CC2)on1)C(=O)c1cccc(-c2ccc3c(c2)CCO3)c1 | Cryptococcus neoformans | broth microdilution | H99, YNB with 2% acetate |  | 2 µg/mL
CC(=O)OC1C(C)C(OC2CC3OCOC3C(C)O2)C=COC2(C)Oc3c(C)c(O)c4c(c3C2=O)C(=O)C=C(NC(=O)C(C)=CC=CC(C(C)OC(=O)C(C)(C)CC(=O)O)C(O)C(C)C(O)C1C)C4=O (centres unmarked) | Serratia marcescens Serratia marcescens |  | NCTC 10211 |  | > 128 µg/mL
CC(C)c1ccc(Cn2ccc([C@H](C)[C@](O)(Cn3cnnn3)c3ccc(F)cc3F)n2)cc1 | Candidozyma auris | growth | 791 drug-resistant isolate | 24 h, 30 °C, ≥50% inhibition | 4 µg/mL
